Assay results collected from several papers.
Protocols differ between the studies behind these lines. ± gives the spread as reported.

`N=C(N)NCCC[C@@H]1NC(=O)[C@H](CCCCNC(=O)CC[C@H](NC(=O)[C@H](CCCCNC(=O)c2ccc(NN)nc2)NC(=O)c2ccc(NN)nc2)C(=O)NCCCC[C@@H]2NC(=O)[C@@H](Cc3ccccc3)NC(=O)[C@H](CC(=O)O)NC(=O)CNC(=O)[C@H](CCCNC(=N)N)NC2=O)NC(=O)[C@@H](Cc2ccccc2)NC(=O)[C@H](CC(=O)O)NC(=O)CNC1=O` [technetium-99m labelled] gave a tissue uptake of 1.57 ± 0.17 %ID/g (female athymic nude mice, spleen; intravenous, 0.1 MBq, 1 h, U-87 MG glioma xenograft).
`N=C(N)NCCC[C@@H]1NC(=O)[C@H](CCCCNC(=O)CNC(=O)CNC(=O)CNC(=O)CC[C@H](NC(=O)CCOCCOCCOCCOCCNC(=O)CC[C@H](NC(=O)CN2CCN(CC(=O)O)CCN(CC(=O)O)CCN(CC(=O)O)CC2)C(=O)NCCOCCOCCOCCOCCC(=O)N[C@@H](CCC(=O)NCC(=O)NCC(=O)NCC(=O)NCCCC[C@@H]2NC(=O)[C@@H](Cc3ccccc3)NC(=O)[C@H](CC(=O)O)NC(=O)CNC(=O)[C@H](CCCNC(=N)N)NC2=O)C(=O)NCC(=O)NCC(=O)NCC(=O)NCCCC[C@@H]2NC(=O)[C@@H](Cc3ccccc3)NC(=O)[C@H](CC(=O)O)NC(=O)CNC(=O)[C@H](CCCNC(=N)N)NC2=O)C(=O)NCC(=O)NCC(=O)NCC(=O)NCCCC[C@@H]2NC(=O)[C@@H](Cc3ccccc3)NC(=O)[C@H](CC(=O)O)NC(=O)CNC(=O)[C@H](CCCNC(=N)N)NC2=O)NC(=O)[C@@H](Cc2ccccc2)NC(=O)[C@H](CC(=O)O)NC(=O)CNC1=O` [indium-111 labelled] gave a tissue uptake of 5.57 ± 0.63 %ID/g (female athymic nude mice, kidney; intravenous, 3 µCi, 1 h, U-87 MG glioma xenograft).
For `CSCC[C@H](NC(=O)[C@H](CC(C)C)NC(=O)[C@H](Cc1c[nH]cn1)NC(=O)CNC(=O)[C@@H](NC(=O)[C@H](C)NC(=O)[C@H](Cc1c[nH]c2ccccc12)NC(=O)[C@H](CCC(N)=O)NC(=O)CNC(=O)[C@H](CO)NC(=O)CNC(=O)CCCCCCCNC(=O)CCC(=O)Nc1ccc(CNC23CNCCNCC(N)(CNCCNC2)CNCCNC3)cc1)C(C)C)C(N)=O` [copper-64 labelled], the tissue uptake was 1.9 ± 0.1 %ID/g (female SCID mice, PC-3 xenograft, pancreas; intravenous, 1 h, added: 100 µg Tyr4-bombesin blocking).
The tissue uptake of `N=C(N)NCCC[C@@H]1NC(=O)[C@H](CCCCNC(=O)CCOCCOCCOCCOCCNC(=O)CC[C@H](NC(=O)CCOCCOCCOCCOCCNC(=O)[C@H](CCCCNC(=O)c2ccc(NN)nc2)NC(=O)c2ccc(NN)nc2)C(=O)NCCOCCOCCOCCOCCC(=O)NCCCC[C@@H]2NC(=O)[C@@H](Cc3ccccc3)NC(=O)[C@H](CC(=O)O)NC(=O)CNC(=O)[C@H](CCCNC(=N)N)NC2=O)NC(=O)[C@@H](Cc2ccccc2)NC(=O)[C@H](CC(=O)O)NC(=O)CNC1=O` [technetium-99m labelled] is reported as 1.92 ± 0.38 %ID/g (female athymic nude mice, spleen; intravenous, 0.1 MBq, 1 h, U-87 MG glioma xenograft).
`N=C(N)NCCC[C@@H]1NC(=O)[C@H](CCCCNC(=O)CC[C@H](NC(=O)CCOCCOCCOCCOCCNC(=O)CN2CCN(CC(=O)O)CCN(CC(=O)O)CCN(CC(=O)O)CC2)C(=O)NCCCC[C@@H]2NC(=O)[C@@H](Cc3ccccc3)NC(=O)[C@H](CC(=O)O)NC(=O)CNC(=O)[C@H](CCCNC(=N)N)NC2=O)NC(=O)[C@@H](Cc2ccccc2)NC(=O)[C@H](CC(=O)O)NC(=O)CNC1=O` [indium-111 labelled] gave a tissue uptake of 0.39 ± 0.11 %ID/g (female athymic nude mice, muscle; intravenous, 3 µCi, 24 h, U-87 MG glioma xenograft).
For `N=C(N)NCCC[C@@H]1NC(=O)[C@H](CCCCNC(=O)CCOCCOCCOCCOCCNC(=O)CC[C@H](NC(=O)[C@H](CCCCNC(=O)c2ccc(NN)nc2)NC(=O)c2ccc(NN)nc2)C(=O)NCCOCCOCCOCCOCCC(=O)NCCCC[C@@H]2NC(=O)[C@@H](Cc3ccccc3)NC(=O)[C@H](CC(=O)O)NC(=O)CNC(=O)[C@H](CCCNC(=N)N)NC2=O)NC(=O)[C@@H](Cc2ccccc2)NC(=O)[C@H](CC(=O)O)NC(=O)CNC1=O` [technetium-99m labelled], the tissue uptake was 1.28 ± 0.3 %ID/g (female athymic nude mice, heart; intravenous, 0.1 MBq, 1 h, U-87 MG glioma xenograft).
For `CSCC[C@H](NC(=O)[C@H](CC(C)C)NC(=O)[C@H](Cc1c[nH]cn1)NC(=O)CNC(=O)[C@@H](NC(=O)[C@H](C)NC(=O)[C@H](Cc1c[nH]c2ccccc12)NC(=O)[C@H](CCC(N)=O)NC(=O)CCCCCCCNC(=O)CCC(=O)Nc1ccc(CNC23CNCCNCC(N)(CNCCNC2)CNCCNC3)cc1)C(C)C)C(N)=O` [copper-64 labelled], the tissue uptake was 67.4 ± 4.57 %ID/g (female SCID mice, PC-3 xenograft, pancreas; intravenous, 0.6 MBq, 1 h).
The tissue uptake of `CSCC[C@H](NC(=O)[C@H](CC(C)C)NC(=O)[C@H](Cc1c[nH]cn1)NC(=O)CNC(=O)[C@@H](NC(=O)[C@H](C)NC(=O)[C@H](Cc1c[nH]c2ccccc12)NC(=O)[C@H](CCC(N)=O)NC(=O)CCCCNC(=O)CSCCSCCP(CO)CO)C(C)C)C(N)=O` [technetium-99m labelled] is reported as 0 %ID (CF-1 mice, female, brain; intravenous, 1 h).
`CC(C)C[C@H](NC(=O)[C@H](Cc1ccc(O)cc1)NC(=O)[C@@H](CCCNC(=N)N)NC(=O)[C@@H](CO)NC(=O)[C@H](Cc1ccccc1)NC(=O)[C@H](CC1CCCCC1)NC(=O)[C@H](CC(=O)O)NC(=O)CCC(C(=O)O)N1CCCN2CCN(CCCN(CC(=O)O)CC2)CC1)C(=O)N[C@@H](Cc1c[nH]c2ccccc12)C(=O)N[C@@H](CO)C(=O)O` (stereo partly shown) [copper-64 labelled] has a tissue uptake of 2.7 ± 0.3 %ID/g (female NMRI nude mice, spleen; 22 h p.i.).
For `N=C(N)NCCC[C@@H]1NC(=O)[C@H](CCCCNC(=O)CCOCCOCCOCCOCCNC(=O)CC[C@H](NC(=O)CCOCCOCCOCCOCCNC(=O)CC[C@H](NC(=O)CN2CCN(CC(=O)O)CCN(CC(=O)O)CCN(CC(=O)O)CC2)C(=O)NCCOCCOCCOCCOCCC(=O)N[C@@H](CCC(=O)NCCOCCOCCOCCOCCC(=O)NCCCC[C@@H]2NC(=O)[C@@H](Cc3ccccc3)NC(=O)[C@H](CC(=O)O)NC(=O)CNC(=O)[C@H](CCCNC(=N)N)NC2=O)C(=O)NCCOCCOCCOCCOCCC(=O)NCCCC[C@@H]2NC(=O)[C@@H](Cc3ccccc3)NC(=O)[C@H](CC(=O)O)NC(=O)CNC(=O)[C@H](CCCNC(=N)N)NC2=O)C(=O)NCCOCCOCCOCCOCCC(=O)NCCCC[C@@H]2NC(=O)[C@@H](Cc3ccccc3)NC(=O)[C@H](CC(=O)O)NC(=O)CNC(=O)[C@H](CCCNC(=N)N)NC2=O)NC(=O)[C@@H](Cc2ccccc2)NC(=O)[C@H](CC(=O)O)NC(=O)CNC1=O` [indium-111 labelled], the tissue uptake was 0.29 ± 0.14 %ID/g (female athymic nude mice, blood; intravenous, 3 µCi, 1 h, U-87 MG glioma xenograft).

For quick reference, copied from above:
`N=C(N)NCCC[C@@H]1NC(=O)[C@H](CCCCNC(=O)CNC(=O)CNC(=O)CNC(=O)CC[C@H](NC(=O)CCOCCOCCOCCOCCNC(=O)CC[C@H](NC(=O)CN2CCN(CC(=O)O)CCN(CC(=O)O)CCN(CC(=O)O)CC2)C(=O)NCCOCCOCCOCCOCCC(=O)N[C@@H](CCC(=O)NCC(=O)NCC(=O)NCC(=O)NCCCC[C@@H]2NC(=O)[C@@H](Cc3ccccc3)NC(=O)[C@H](CC(=O)O)NC(=O)CNC(=O)[C@H](CCCNC(=N)N)NC2=O)C(=O)NCC(=O)NCC(=O)NCC(=O)NCCCC[C@@H]2NC(=O)[C@@H](Cc3ccccc3)NC(=O)[C@H](CC(=O)O)NC(=O)CNC(=O)[C@H](CCCNC(=N)N)NC2=O)C(=O)NCC(=O)NCC(=O)NCC(=O)NCCCC[C@@H]2NC(=O)[C@@H](Cc3ccccc3)NC(=O)[C@H](CC(=O)O)NC(=O)CNC(=O)[C@H](CCCNC(=N)N)NC2=O)NC(=O)[C@@H](Cc2ccccc2)NC(=O)[C@H](CC(=O)O)NC(=O)CNC1=O` [indium-111 labelled] gave a tissue uptake of 5.57 ± 0.63 %ID/g (female athymic nude mice, kidney; intravenous, 3 µCi, 1 h, U-87 MG glioma xenograft).
`N=C(N)NCCC[C@@H]1NC(=O)[C@H](CCCCNC(=O)CC[C@H](NC(=O)CCOCCOCCOCCOCCNC(=O)CN2CCN(CC(=O)O)CCN(CC(=O)O)CCN(CC(=O)O)CC2)C(=O)NCCCC[C@@H]2NC(=O)[C@@H](Cc3ccccc3)NC(=O)[C@H](CC(=O)O)NC(=O)CNC(=O)[C@H](CCCNC(=N)N)NC2=O)NC(=O)[C@@H](Cc2ccccc2)NC(=O)[C@H](CC(=O)O)NC(=O)CNC1=O` [indium-111 labelled] gave a tissue uptake of 0.39 ± 0.11 %ID/g (female athymic nude mice, muscle; intravenous, 3 µCi, 24 h, U-87 MG glioma xenograft).
